Results from different studies.
Each numbered part is a random draw from the data of one study; scales do not carry over between parts. Positions count from the first letter of the parent shown.

Set 1 — method: RNA Bind-n-Seq; form: RNA; sample: in vitro; tested at: 365 nM; reference: no-protein control; direction: higher = stronger binding
Target: RNA binding protein fox-1 homolog 2, RRM domain, GST-SBP tag (RBFOX2, Homo sapiens, UniProt O43251-10, residues 100-194)
Setting: natural RNA segment, single round, ends assumed
Shared flanks, not repeated: GGGAGUUCUACAGUCCGACGAUC … UGGAAUUCUCGGGUGCCAA
Residues (chain): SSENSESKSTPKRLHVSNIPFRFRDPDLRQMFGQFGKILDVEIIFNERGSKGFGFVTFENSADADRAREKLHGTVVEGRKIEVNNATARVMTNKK
Sequence | RBNS enrichment (R)
CCUUCUAAAGUGAAAGUGAUGUUAGUUAAGUUAUUAUUGGUUUGUUGCCACCUGGUACCUUAAACUCGGUGGCUAUUCCCAUUGCUGUGUUUUAUUUGUAUAGUCUUACG | 0.31
GAGCACGAGUUCACCUUCCAGAUGUGGCCAGGGUGUGCCAGCUCCUCUCUCCUGUGCGUUGGAACCCCGGGGGAGGCAAGAGCAGAUCACAGGUGCAUGAGGGUUACACC | 2.97
GACAAACACCCUGUUGAACUGAGAGAAGUAAACUCCAGAAGGGAACCAAGAUUUCCUCCCUUUCCUGGUGAGUGUUUCCAUUAUUCCGUUAAGGUUUAAUAUGCAUUCAG | 0.233
GCCUAAUUCAGUUCCAGCUCUCACUCUACUCACCCAUGCCUCUAGCUGCACAAUGUUAUGGCACUACGGGAGAGGCGAGGAAGGAGACGUGAGAUCAACAAAUGAGACCC | 0.697
ACAGUGGCCCUUCAUGGGAACAAUCUGUUGGAGCAGGGGGUCAGUUCUCUGCUGGGAAUCUACCCCUUUCUGGAGGAGAAACCCAUUCCACCUUAAUAACUUUAUUGUAA | 0.219
GAGGAAAAAAAAAACCCUCUAGAAAAACAAAAAUGAAGACAGGAUCUCAUGUAUCGUAGAUUGGCCUUUAAGUCACUUUACCAAGGAUGAUCUUUGAACUCCUGAGUACA | 0.377
GUUACCCUUGGAAGAUAAAGCUGGGUCUUCAGGAACUCAGUGUCUGGGAGGAAAGCAUGGCCCAGCAUUCAGCAUGUGUUCCUUUCUGCAGUGGUUCUUAUCACCACCUC | 8.2
GCUGAAAAUGUCACCACUAUCUGGAGAUUUCGACGUGUUUUCCUCUCUGAAUCUGUUAUGAACACGUUGGUUGGCUGGAUUCAGUAAUAAAUAUGUAAGGCCUUUCUUUU | 0.398
AUUCCAGUGAACAUUUAUUUUGUAUAUAAAAUUUUAAACCUAUUGUGUGAAGCUACCCUCAGGCUAUGUAGAUCAGAUGUAUAAAAAGCACAAAUGAAUAUCUCAAUUAC | 0.798
CUCCAUGAAAUUCCGUUUCCUCUGUUAACCGUCACUGAGCACUCUUCCUCGGGGCUCUCUGCUGCUCUACCAAUUGUGUUGCUUUCCACUUCUUCAGUGAUUCUUCAGUG | 0.266
UGCACUGUGAGCAGCACUAUACCUGUGCGUUGUCUGAAAGCCUUCCGUAUAUUCUCCAGCUAAAUGGUCGUCUGGUAGCCUUUGCAUUUAACAAACUAGCAUGAGGCUUU | 3.65
AAAGUGGCCCACACAAGCCGUCUGAUUUGUCCUCCCACAUAAUGGCAGGCACAGGCCAUGGCACUGGAUUAGUUCUCAUGGGGACUGGUAGUACAAAAGGAUGUCUUUAA | 0.348

Set 2 — method: RNA Bind-n-Seq; form: RNA; sample: in vitro; tested at: not given; reference: input RNA pool; direction: higher = stronger binding
Target: RING finger protein unkempt homolog, zinc fingers 1-6, GST-SBP tag (UNK, Homo sapiens, UniProt Q9C0B0, residues 30-357)
Setting: RNA with constant flanks, human and mouse sites, ends assumed
Shared flanks, not repeated: GGGAGUUCUACAGUCCGACGAUC … CAACAGAGGAUUGAGCAUCA
Residues (chain): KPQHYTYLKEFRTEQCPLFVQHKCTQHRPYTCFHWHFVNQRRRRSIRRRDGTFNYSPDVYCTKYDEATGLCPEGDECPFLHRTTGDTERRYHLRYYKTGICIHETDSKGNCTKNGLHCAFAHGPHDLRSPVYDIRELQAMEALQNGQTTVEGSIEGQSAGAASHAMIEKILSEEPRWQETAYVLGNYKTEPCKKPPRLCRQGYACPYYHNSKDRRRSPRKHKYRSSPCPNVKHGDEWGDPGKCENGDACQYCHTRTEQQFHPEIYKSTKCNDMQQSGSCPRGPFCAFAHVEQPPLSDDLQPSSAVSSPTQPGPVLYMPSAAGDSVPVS
Sequence | bound/input enrichment
CUCCCUGAUGACAUCAGCCAUGGCUAUGGCUGGUCCAUGUUCUGUGCAUGGGGGGGCCUGGGCCUCACACUCAUCUCGGGAUUCUUCUGUACCUUAGCCCCUUCUGUUCAACCUGUCCCG | 0.121 ratio
CUUACAAAUAAGUACUUAAAACAGAGCUUAAUGGGUAAAGCAACAGCUGUGUAAUCACAAACUAGAUGCAGAGGAGGUCUUGCCAGCACUCCAAAAUCUCUGUGUGUCCCCUCUUGACAC | 0.171 ratio
UGUGUAUGUACUGGCAGUAUUAAAUUUAUUCAUCAAGAAUGCUUAGUUCAGUGGUUGAAACAUAGUCGGAAAGAAUACUGUGAAUUAUGCAAGCACAGAUUUGCUUUCACACCAAUUUAU | 1.01 ratio
GUUCAGCUUCACCAGAUGGCUGUGAUAGGGCAGCAAGCUGGGAGCAGCAGCAACCUCACCGAGCUACAGGUGGUGAACCUGGAUGCCACCCACAGCACCAAGAGUGAAUGAUCCGCCCGU | 0.129 ratio
CCUGCUCAGAUCACCAUGAAAGUAAUCCAAGGCCUAUAUAGUGGGGUCACCACAGUGGAACUGGACACCCUGGCUGCUGAGACAGCCGCGACCUUGACCACGAAGCACCCUGACUAUGCC | 0.14 ratio
AGACAGCCCAUACACUCUGUCUCACAUCUGAUCCUUGGUGGGAAGUGUUUUAAAGUAGAACUAUGUAUGAAUUUCAGAAUUCAUGCAUUUUAAAACUUCACUAAGAUAUUGUCUCAUAUC | 0.188 ratio
UUAAUCAUAAUCAUGUUCAUGGACAUAAAUAUUUCAUUGCAAGUCACUCACUUCUAGAAUUUGAUGUUACGUCAUAUCACAUUUUAUAAACCUAUGUUAAGCUUAUGUAUAUGUUAUUAC | 1.13 ratio
UUCAGUGCCUCAAUUGAUGACAAGGUUGGUAGACAUGUUAAAAUGAUCGACAAUGUCUAUAAUCCUGCAGCCAUUGCUGUUGAUUGGGUGUACAAGACCAUCUACUGGACUGAUGCGGCU | 0.0867 ratio
UUGCGGAAAGCCCAAGGGCAGAGCAUACUUGAAGUCCUGAGGAUAAUUCAGUAUUGCACAGAAUCCCUCGGGCAGCCUCACUGCUUCCACCCACCGUAUAUACUUUUCCUACUGGAACUU | 0.0839 ratio
ACAAAGACAGUCAUUAAAGAAGGUGAAGAACAGCUGCAGACUCAGCACCAGAAAACGUUCAUAGGGAAAAUUCCAAUUAUGCUGCGCUCCACCUACUGCCUGUUAAAUGGCUUAACAGAU | 0.686 ratio
AAAGUUUUCUUUACAGAGAAAUUUGGAUUUUCUUCCCAGGCAGCAAGUGCAAUUAACAGUGUUGUAUAUGUCAUAUCAGCUCCCAUGUCCCCGGUGUUUGGGCUCCUGGUGGAUAAAACA | 0.213 ratio

Set 3 — method: universal PBM; form: double-stranded DNA, one strand shown; sample: in vitro; tested at: not given; direction: higher = stronger binding
Target: Sal-like protein 4, full length isoform B (SALL4, Homo sapiens, UniProt Q9UJQ4-2, residues 1-616)
Setting: 8-mer, flanks averaged, mean of replicates
Sequence | E-score
GTACTGCA | -0.0899
GAGATCCC | 0.0226
ATGTACAG | 0.137
CAGTGTTA | 0.0546
CTACCGTA | 0.0485
CGTCGAGC | -0.185
AATCATCT | 0.116
ACCAATGG | -0.129
CAAACGGA | -0.161
CAAATCAA | 0.223
CGCTGGAC | -0.3
GGGTGGAC | -0.287
CATTACTC | 0.102
GCCTGAGC | -0.309
ACTAGGAT | 0.108
ATCGTCTA | -0.0674
CATTCCCC | -0.18
GGCTTAGA | -0.112
ACCACTAC | -0.0597
CTCGCCTC | -0.254
TATCAGGA | 0.211
CCGTAATC | -0.0727
GCCTTGAA | -0.106
CTTATCCC | 0.0712
GGCTGCAA | -0.0991

Set 4 — target: CCND3, cyclin fold, Cln2 fusion (human); method: yeast growth competition, sequencing; sample: yeast; setting: weak parent motif; reference: not given; direction: higher = stronger binding
Starting sequence: SCAPER docking peptide (human); SNARRSLNFGGST; partner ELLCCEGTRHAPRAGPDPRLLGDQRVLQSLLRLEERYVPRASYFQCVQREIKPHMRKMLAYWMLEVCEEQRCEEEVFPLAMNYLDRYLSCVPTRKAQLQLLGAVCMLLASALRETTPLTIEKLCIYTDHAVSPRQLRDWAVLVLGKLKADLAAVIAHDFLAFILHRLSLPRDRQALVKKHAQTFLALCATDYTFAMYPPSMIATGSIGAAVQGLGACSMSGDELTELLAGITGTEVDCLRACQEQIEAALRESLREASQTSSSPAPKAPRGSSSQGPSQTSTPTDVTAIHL
Change | normalised enrichment score
G11M | 0.153
R4Q | -0.0227
S1H | 0.094
A3P | 0.155
N8W | 0.158
A3I | 0.229
G10S | 0.135
G11N | 0.105
L7H | 0.135
S12M | 0.0197
S12P | 0.222
R4M | 0.0938
G10P | 0.158
S1D | 0.174
S6Y | 0.161
T13K | 0.152
S6P | 0.189
R5T | 0.102
R4I | 0.152
L7E | 0.191
G11L | 0.125
S1Y | 0.162
N8D | 0.116
A3Q | 0.064
T13I | 0.164
